Results pooled from the literature.
Compare with care: the assays were run in different laboratories. Converted amounts (≈) assume the structure as drawn.
Organism: Klebsiella pneumoniae

| Structure (SMILES) | assay | system | conditions | scale | measurement | result |
| --- | --- | --- | --- | --- | --- | --- |
| CCCCCCCCCCCCCCCC(=O)NCCCC[C@H](NC(=O)[C@H](CCCNC(=N)N)NC(=O)[C@H](Cc1ccc(O)cc1)NC(=O)[C@H](CC(C)C)NC(=O)[C@H](CCCNC(=N)N)NC(=O)CNS(=O)(=O)c1ccc(N)cc1)C(N)=O |  | ATCC 13883, C57BL/6 mouse, pneumonia model | intratracheal, 2 mg/kg |  | survival rate | 80% |
| CC[C@H](C)[C@H](NC(=O)[C@H](CCCNC(=N)N)NC(=O)[C@H](CCCCN)NC(=O)[C@H](CC(C)C)NC(=O)[C@H](CC(C)C)NC(=O)CN)C(=O)N[C@@H](CCCCN)C(=O)N[C@H](C(=O)N[C@@H](CC(C)C)C(=O)N[C@@H](CC(C)C)C(=O)NCCCC[C@H](NC(=O)[C@H](CCCCNC(=O)[C@H](CC(C)C)NC(=O)[C@H](CC(C)C)NC(=O)[C@@H](NC(=O)[C@H](CCCCN)NC(=O)[C@@H](NC(=O)[C@H](CCCNC(=N)N)NC(=O)[C@H](CCCCN)NC(=O)[C@H](CC(C)C)NC(=O)[C@H](CC(C)C)NC(=O)CN)[C@@H](C)CC)[C@@H](C)O)NC(=O)[C@H](CC(C)C)NC(=O)[C@H](CC(C)C)NC(=O)[C@@H](NC(=O)[C@H](CCCCN)NC(=O)[C@@H](NC(=O)[C@H](CCCNC(=N)N)NC(=O)[C@H](CCCCN)NC(=O)[C@H](CC(C)C)NC(=O)[C@H](CC(C)C)NC(=O)CN)[C@@H](C)CC)[C@@H](C)O)C(N)=O)[C@@H](C)O | checkerboard | ATCC 700603 | added: gentamicin |  | FIC index | 0.625 |
| CC[C@H](C)[C@H](NC(=O)[C@H](C)NC(=O)[C@@H](NC(=O)[C@H](CC(=O)O)NC(=O)[C@H](CCCCN)NC(=O)[C@H](CO)NC(=O)[C@@H](NC(=O)[C@H](CC(N)=O)NC(=O)[C@H](C)NC(=O)[C@@H](NC(=O)[C@H](CCC(=O)O)NC(=O)[C@H](CCCCN)NC(=O)[C@@H](NC(=O)[C@@H](NC(=O)[C@H](Cc1c[nH]cn1)NC(=O)[C@H](CCCCN)NC(=O)[C@@H](NC(=O)[C@H](CCCCN)NC(=O)[C@H](CCCCN)NC(=O)[C@@H](NC(=O)[C@H](CC(C)C)NC(=O)[C@H](CCCCN)NC(=O)[C@H](CC(N)=O)NC(=O)[C@H](Cc1ccccc1)NC(=O)[C@H](CCCNC(=N)N)NC(=O)[C@H](CCCCN)NC(=O)[C@H](CCCNC(=N)N)NC(=O)[C@H](Cc1ccccc1)NC(=O)CN)C(C)C)C(C)C)[C@@H](C)O)[C@@H](C)CC)[C@@H](C)O)C(C)C)C(C)C)C(=O)N[C@H](C(=O)N[C@@H](C)C(=O)NCC(=O)N[C@@H](CO)C(=O)NCC(=O)N[C@H](C(=O)N[C@@H](C)C(=O)N[C@H](C(=O)NCC(=O)N[C@@H](C)C(=O)N[C@@H](C)C(=O)N[C@@H](CCSC)C(N)=O)C(C)C)C(C)C)C(C)C |  | isolate RKI 93/10, CAMHB |  |  | MIC | 4 µg/mL |
| CCCC(=O)NCC(=O)N[C@@H](CC(C)C)C(=O)N[C@@H](CC(C)C)C(=O)N[C@@H](CCCCN)C(=O)N[C@@H](CCCNC(=N)N)C(=O)N[C@H](C(=O)N[C@@H](CCCCN)C(=O)N[C@H](C(=O)N[C@@H](CC(C)C)C(=O)N[C@@H](CC(C)C)C(=O)NCCCC[C@H](NC(=O)[C@H](CC(C)C)NC(=O)[C@H](CC(C)C)NC(=O)[C@@H](NC(=O)[C@H](CCCCN)NC(=O)[C@@H](NC(=O)[C@H](CCCNC(=N)N)NC(=O)[C@H](CCCCN)NC(=O)[C@H](CC(C)C)NC(=O)[C@H](CC(C)C)NC(=O)CNC(=O)CCC)[C@@H](C)CC)[C@@H](C)O)C(=O)NCCCC[C@H](NC(=O)[C@H](CCCCNC(=O)[C@H](CC(C)C)NC(=O)[C@H](CC(C)C)NC(=O)[C@@H](NC(=O)[C@H](CCCCN)NC(=O)[C@@H](NC(=O)[C@H](CCCNC(=N)N)NC(=O)[C@H](CCCCN)NC(=O)[C@H](CC(C)C)NC(=O)[C@H](CC(C)C)NC(=O)CNC(=O)CCC)[C@@H](C)CC)[C@@H](C)O)NC(=O)[C@H](CC(C)C)NC(=O)[C@H](CC(C)C)NC(=O)[C@@H](NC(=O)[C@H](CCCCN)NC(=O)[C@@H](NC(=O)[C@H](CCCNC(=N)N)NC(=O)[C@H](CCCCN)NC(=O)[C@H](CC(C)C)NC(=O)[C@H](CC(C)C)NC(=O)CNC(=O)CCC)[C@@H](C)CC)[C@@H](C)O)C(N)=O)[C@@H](C)O)[C@@H](C)CC | checkerboard | ATCC 700603 | added: polymyxin B |  | FIC index | 0.125 |
| COc1ccc2ccc3c(c2c1)C=[N+]1C2CCCCC2[N+]2=Cc4c(OC)cccc4[O][Au-]21[O]3.F[P-](F)(F)(F)(F)F (stereo not shown) | bacterial growth, broth microdilution | carbapenem-resistant | 24 h |  | MIC | > 20 µM |
| COc1ccc(-c2ccn(CC[C@](C)(C(=O)NO)S(C)(=O)=O)c(=O)c2)c(F)c1 | microbial growth |  | clinical isolate |  | MIC90 | 1 µg/mL (≈ 2.42 µM) |
| COc1ccc2ccc3c(c2c1)C=[N+]1C2CCCCC2[N+]2=Cc4cc(C(C)(C)C)ccc4[O][Au-]21[O]3.F[P-](F)(F)(F)(F)F (stereo not shown) | bacterial growth, broth microdilution | carbapenem-resistant clinical isolate | 24 h |  | MIC | 10 µM |
| CCCCCCCCCCCCCC(=O)N[C@H](CCN)C(=O)N[C@@H]1C(=O)N[C@@H](CCN)C(=O)N[C@@H](CC(C)C)C(=O)N[C@@H](CCN)C(=O)N[C@H](Cc2ccccc2)C(=O)N[C@@H](CC(C)C)C(=O)N[C@@H](CCN)C(=O)N[C@H](CCN)C(=O)N[C@@H](C(C)C)C(=O)N[C@@H](CC(=O)O)C(=O)O[C@@H]1C |  | BNCC 353393, XDR, colistin and carbapenem resistant, neutropenic mice, thigh infection | subcutaneous, 20 mg/kg once daily | relative to: vehicle | reduction in bacterial burden | 3.12 log10 CFU |
| COc1ccc2ccc3c(c2c1)C=[N+]1C2CCCCC2[N+]2=Cc4cccc(F)c4[O][Au-]21[O]3.F[P-](F)(F)(F)(F)F (stereo not shown) | bacterial growth, broth microdilution | carbapenem-resistant clinical isolate | 24 h |  | MIC | 10 µM |
| CCCCCC(=O)NCC(=O)N[C@@H](CC(C)C)C(=O)N[C@@H](CC(C)C)C(=O)N[C@@H](CCCCN)C(=O)N[C@@H](CCCNC(=N)N)C(=O)N[C@H](C(=O)N[C@@H](CCCCN)C(=O)N[C@H](C(=O)N[C@@H](CC(C)C)C(=O)N[C@@H](CC(C)C)C(=O)NCCCC[C@H](NC(=O)[C@H](CCCCNC(=O)[C@H](CC(C)C)NC(=O)[C@H](CC(C)C)NC(=O)[C@@H](NC(=O)[C@H](CCCCN)NC(=O)[C@@H](NC(=O)[C@H](CCCNC(=N)N)NC(=O)[C@H](CCCCN)NC(=O)[C@H](CC(C)C)NC(=O)[C@H](CC(C)C)NC(=O)CNC(=O)CCCCC)[C@@H](C)CC)[C@@H](C)O)NC(=O)[C@H](CC(C)C)NC(=O)[C@H](CC(C)C)NC(=O)[C@@H](NC(=O)[C@H](CCCCN)NC(=O)[C@@H](NC(=O)[C@H](CCCNC(=N)N)NC(=O)[C@H](CCCCN)NC(=O)[C@H](CC(C)C)NC(=O)[C@H](CC(C)C)NC(=O)CNC(=O)CCCCC)[C@@H](C)CC)[C@@H](C)O)C(N)=O)[C@@H](C)O)[C@@H](C)CC | checkerboard | ATCC 700603 | added: gentamicin |  | FIC index | 0.375 |

Repeated from above:
| Structure (SMILES) | assay | system | conditions | scale | measurement | result |
| --- | --- | --- | --- | --- | --- | --- |
| CCCC(=O)NCC(=O)N[C@@H](CC(C)C)C(=O)N[C@@H](CC(C)C)C(=O)N[C@@H](CCCCN)C(=O)N[C@@H](CCCNC(=N)N)C(=O)N[C@H](C(=O)N[C@@H](CCCCN)C(=O)N[C@H](C(=O)N[C@@H](CC(C)C)C(=O)N[C@@H](CC(C)C)C(=O)NCCCC[C@H](NC(=O)[C@H](CC(C)C)NC(=O)[C@H](CC(C)C)NC(=O)[C@@H](NC(=O)[C@H](CCCCN)NC(=O)[C@@H](NC(=O)[C@H](CCCNC(=N)N)NC(=O)[C@H](CCCCN)NC(=O)[C@H](CC(C)C)NC(=O)[C@H](CC(C)C)NC(=O)CNC(=O)CCC)[C@@H](C)CC)[C@@H](C)O)C(=O)NCCCC[C@H](NC(=O)[C@H](CCCCNC(=O)[C@H](CC(C)C)NC(=O)[C@H](CC(C)C)NC(=O)[C@@H](NC(=O)[C@H](CCCCN)NC(=O)[C@@H](NC(=O)[C@H](CCCNC(=N)N)NC(=O)[C@H](CCCCN)NC(=O)[C@H](CC(C)C)NC(=O)[C@H](CC(C)C)NC(=O)CNC(=O)CCC)[C@@H](C)CC)[C@@H](C)O)NC(=O)[C@H](CC(C)C)NC(=O)[C@H](CC(C)C)NC(=O)[C@@H](NC(=O)[C@H](CCCCN)NC(=O)[C@@H](NC(=O)[C@H](CCCNC(=N)N)NC(=O)[C@H](CCCCN)NC(=O)[C@H](CC(C)C)NC(=O)[C@H](CC(C)C)NC(=O)CNC(=O)CCC)[C@@H](C)CC)[C@@H](C)O)C(N)=O)[C@@H](C)O)[C@@H](C)CC | checkerboard | ATCC 700603 | added: polymyxin B |  | FIC index | 0.125 |
